Assay results from different studies.
A part holds a random share of what one study measured. Positions count from the first letter of the parent shown.

Block 1
Target: Max dimerization protein 1, bHLH-zipper, MAX partner unstated (MXD1, Homo sapiens, UniProt Q05195, residues 56-136)
Method: protein-binding microarray
Form: double-stranded DNA, one strand shown
Sample: in vitro
Concentration: not given
Notes: k-mer, scored over probes, only values ≥0.25
Direction: higher = stronger binding
Measurement: E-score
Target sequence (chain): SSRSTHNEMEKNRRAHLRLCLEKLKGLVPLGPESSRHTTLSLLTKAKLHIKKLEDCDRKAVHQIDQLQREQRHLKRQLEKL
AACATGTG: 0.477
AATACATG: 0.322
GGGCGGGA: 0.277
AGCATGCG: 0.416
GTGTCAAA: 0.269
ACGCTACA: 0.265
GGTGGGGA: 0.296
AACCCATG: 0.353
GGGGGCAC: 0.3
CAGACACG: 0.287
CGTGGGTC: 0.331
CGCGTGCA: 0.405

Block 2
Target: Histone acetyltransferase KAT6A, both winged helices, GST fusion (KAT6A, Homo sapiens, UniProt Q92794, residues 1-181)
Method: protein binding microarray
Form: double-stranded DNA, one strand shown
Sample: in vitro
Concentration: not given
Notes: 8-mer, flanks averaged, mean of 2 arrays, mostly near background
Relative to: not given
Direction: higher = stronger binding
Measurement: E-score
Target sequence (chain): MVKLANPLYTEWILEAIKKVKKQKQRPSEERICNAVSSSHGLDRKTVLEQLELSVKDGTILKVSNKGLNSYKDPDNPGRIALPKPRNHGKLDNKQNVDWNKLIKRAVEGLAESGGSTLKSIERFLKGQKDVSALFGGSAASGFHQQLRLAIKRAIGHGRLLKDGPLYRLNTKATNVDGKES
AACCCATG: -0.132
ACGAATTG: -0.15
AACTCCAC: -0.092
ACGATCTG: -0.178
CAGGGTCG: -0.0144
ATTTCGAC: 0.055
CGGTCCAG: 0.1
GGCTGTCA: 0.0129
CTGTCATC: -0.0843
AGCCATCC: -0.0982
AACCCTAT: -0.124
ATTAAAGA: -0.0672
GATGATAA: -0.0345
CGTACCGA: 0.0785
AGCGGCTC: 0.257
ATTGACGC: 0.101
CCAGCTTA: 0.0378
CAATCTGA: 0.0413
CCTATTCA: -0.0514
CAATGTTA: 0.0204
AATGAATC: -0.188
CGCTTCGA: 0.154
GTGTCTGA: 0.0328
TCTATACA: -0.0728
CAGCCCGA: -0.0111

Block 3
Target: CCNB1, cyclin fold, Cln2 fusion (human)
Method: yeast growth competition, sequencing
Sample: yeast
Notes: strong parent motif
Relative to: not given
Direction: higher = stronger binding
Measurement: normalised enrichment score
Starting sequence: MICAL3 docking peptide (human); LQLRRQLSFSEDS; partner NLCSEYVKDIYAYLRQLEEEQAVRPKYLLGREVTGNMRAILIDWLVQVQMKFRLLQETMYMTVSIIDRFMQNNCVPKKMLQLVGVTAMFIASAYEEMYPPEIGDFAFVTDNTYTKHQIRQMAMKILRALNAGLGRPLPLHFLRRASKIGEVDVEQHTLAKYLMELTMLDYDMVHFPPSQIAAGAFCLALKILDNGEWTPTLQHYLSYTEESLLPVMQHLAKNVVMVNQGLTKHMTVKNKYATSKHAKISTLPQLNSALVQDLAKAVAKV
LQLLRQLSFSEDS [R4L]: 0.859
LQLRRQLSFSYDS [E11Y]: 2.13
LQLRRQLSFSEHS [D12H]: 3.88
LQLGRQLSFSEDS [R4G]: 0.637
LQLQRQLSFSEDS [R4Q]: 3.17
LMLRRQLSFSEDS [Q2M]: 4.29
LQLRRQLSFMEDS [S10M]: 2
LQLRRHLSFSEDS [Q6H]: 2.67
LQLKRQLSFSEDS [R4K]: 3.62
LQLRRQFSFSEDS [L7F]: -0.384
LQPRRQLSFSEDS [L3P]: 2.8
LQFRRQLSFSEDS [L3F]: 2.41
LQLCRQLSFSEDS [R4C]: 5.12

Block 4
Target: Interferon regulatory factor 7, full length, phosphomimetic (IRF7, Homo sapiens, UniProt Q92985, residues 1-503, S101K/S471D/S472D/S475D/S476D/S477D/S483D/S484D/S487D)
UniProt Q92985, sequence (whole entry, unmodified, looked up): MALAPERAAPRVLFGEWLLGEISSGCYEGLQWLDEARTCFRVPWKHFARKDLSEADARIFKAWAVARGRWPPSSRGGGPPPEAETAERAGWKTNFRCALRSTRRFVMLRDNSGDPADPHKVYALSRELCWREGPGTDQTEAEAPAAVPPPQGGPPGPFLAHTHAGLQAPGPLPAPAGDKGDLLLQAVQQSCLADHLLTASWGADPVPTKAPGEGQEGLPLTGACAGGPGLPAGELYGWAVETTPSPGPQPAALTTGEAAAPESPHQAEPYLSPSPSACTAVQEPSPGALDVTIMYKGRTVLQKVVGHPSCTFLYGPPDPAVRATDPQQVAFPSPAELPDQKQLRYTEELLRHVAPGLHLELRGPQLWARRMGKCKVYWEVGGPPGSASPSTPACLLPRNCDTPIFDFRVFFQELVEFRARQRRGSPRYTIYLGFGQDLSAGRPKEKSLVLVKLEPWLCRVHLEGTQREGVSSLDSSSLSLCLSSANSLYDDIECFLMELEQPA
Method: protein-binding microarray
Form: double-stranded DNA, one strand shown
Sample: in vitro
Concentration: 250 nM
Notes: 60-bp whole probe
Together with: salmon DNA 0.4 mg/ml
Relative to: random background probes
Direction: higher = stronger binding
Measurement: log fluorescence
Shared flanks, not repeated: GCCTAGCAC … GTCTTGATTCGCTTGACGCTGCTG
TCAGTTTTCGCTTTCTTACTGTGCTAG: 7.94 z-score
TCACTTCTCCATTTTTCACTGTGCTAG: 1.46 z-score
GACGATATCAGTCTCGAGGCGTGCTAG: 0.0617 z-score
CATTTTCTAAATTCCCTAGTGTGCTAG: 3.1 z-score
GACGATATCAGACTGAAGACGTGCTAG: -0.173 z-score
TTAGGTATCCTACTGCCTTAGTGCTAG: -0.149 z-score
TTAGGTTTCGGCATCGGTTAGTGCTAG: 3.62 z-score
TTAGAACTGGGGTATCGATTTGTGCTA: 1.77 z-score
GACGAACTGAGTTTCGCGACGTGCTAG: 0.952 z-score
TTAGGTCTCGGCTTCGGTTAGTGCTAG: 1.23 z-score
TTAGGCTTCGGTTTCGGTTAGTGCTAG: 8.81 z-score
GACGGTCTCCTTCTCCTGACGTGCTAG: -0.00491 z-score
TCAAAATTGTCTCTGTCACTGTGCTAG: -0.0456 z-score
GACGGTCTCCTTATACTGACGTGCTAG: 0.105 z-score
GACGAAGTGAGTCTCGAGACGTGCTAG: 0.389 z-score
TTAGATTTCAGTCTCGAATAGTGCTAG: 0.854 z-score
TCAGATGCCTTTCTCTTACTGTGCTAG: 0.322 z-score
TTAGGACTGGGGACTGGGTTCGTGCTA: -0.269 z-score
TTAGCTTTCCTTCTCCTTTAGTGCTAG: 0.766 z-score

For quick reference, copied from above (block 1):
AGCATGCG: 0.416
GTGTCAAA: 0.269
ACGCTACA: 0.265
GGTGGGGA: 0.296
AACCCATG: 0.353
GGGGGCAC: 0.3
CAGACACG: 0.287
CGTGGGTC: 0.331
